Measurements pooled from the literature.
Numbered parts are unrelated; each lists some results of a single study. Changes are numbered by the printed parent chain.

Series 1
Target: UBE2J2 UBC core domain (UniProt Q8N2K1)
UniProt Q8N2K1, sequence (whole entry, looked up): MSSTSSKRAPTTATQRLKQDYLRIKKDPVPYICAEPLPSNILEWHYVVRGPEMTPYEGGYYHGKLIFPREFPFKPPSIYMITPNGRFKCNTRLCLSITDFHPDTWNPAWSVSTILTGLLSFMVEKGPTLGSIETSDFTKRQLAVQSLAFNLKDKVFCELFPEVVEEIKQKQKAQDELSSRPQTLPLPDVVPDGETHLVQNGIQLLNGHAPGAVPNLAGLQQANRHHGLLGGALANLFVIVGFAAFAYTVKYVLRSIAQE
Technique: yeast two-hybrid
Sample: yeast
Setting: mostly zero background
Baseline: not given
Reading: higher = stronger interaction
B1: RBCK1 RING domain (UniProt Q9BYM8); chain SLVLNTEPAECPVCYSVLAPGEAVVLRECLHTFCRECLQGTIRNSQEAEVSCPFIDNTYSCSGKLLEREIK
B2: ZMIZ2 RING domain (UniProt Q8NF64); chain GTIPGTPGPNGEDGVEQTAIKVSLKCPITFRRIQLPARGHDCRHIQCFDLESYLQLNCERGTWRCPVCNKTALLEGLEVDQYMLGILIYIQNSDYEEITIDPTCSWK
B3: SH3RF1 RING domain (UniProt Q7Z6J0); chain DESALLDLLECPVCLERLDASAKVLPCQHTFCKRCLLGIVGSRNELRCPECRTLVGSGVEEL
B4: MAP3K1 RING domain (UniProt Q13233); chain NSIKDEEEQMCPICLLGMLDEESLTVCEDGCRNKLHHHCMSIWAEECRRNREPLICPLCRSKWRSHDFYS
B5: DZIP3 RING domain (UniProt Q86Y13); chain PDEEEEEEEPCVICHENLSPENLSVLPCAHKFHAQCIRPWLMQQGTCPTCRLHVLLPEEFP
B6: MDM4 RING domain (UniProt O15151); chain MEDCQNLLKPCSLCEKRPRDGNIIHGRTGHLVTCFHCARRLKKAGASCPICKKEIQLVIKVF
B7: TRIM62 RING domain (UniProt Q9BVG3); chain MACSLKDELLCSICLSIYQDPVSLGCEHYFCRRCITEHWVRQEAQGARDCPECRRTFAEPALAP
B8: UBOX5 RING domain (UniProt O94941); chain EQPGSILGPECASCKRVFSPYFKKEPVYQLPCGHLLCRPCLGEKQRSLPMTCTACQRPVASQDVLR
B9: RNF133 RING domain (UniProt Q8WVZ7); chain DEEINPNGDSCVICFERYKPNDIVRILTCKHFFHKNCIDPWILPHGTCPICKCDILKVLGIQ
| Sequence | lacZ reporter activity |
| --- | --- |
| B1 (RBCK1 RING domain) | 0 |
| B2 (ZMIZ2 RING domain) | 0 |
| AVPSGLEENLCKICMDSPIDCVLLECGHMVTCTKCGKRMNECPICRQYVIRAVHVF (RFFL RING domain (UniProt Q8WZ73)) | 0 |
| GSDDEEIPFKCFICRQSFQNPVVTKCRHYFCESCALQHFRTTPRCYVCDQQTNGVFNPA (RNF113A RING domain (UniProt O15541)) | 0 |
| B3 (SH3RF1 RING domain) | 0 |
| B4 (MAP3K1 RING domain) | 0 |
| B5 (DZIP3 RING domain) | 0 |
| B6 (MDM4 RING domain) | 0 |
| B7 (TRIM62 RING domain) | 0 |
| B8 (UBOX5 RING domain) | 0 |
| B9 (RNF133 RING domain) | 0 |

Series 2
Target: RNA binding protein fox-1 homolog 2, RRM domain, GST-SBP tag (RBFOX2, Homo sapiens, UniProt O43251-10, residues 100-194)
Technique: RNA Bind-n-Seq
Form: RNA
Sample: in vitro
Concentration: 365 nM
Setting: natural RNA segment, single round, ends assumed
Baseline: no-protein control
Reading: higher = stronger binding
All sequences stand within: GGGAGUUCUACAGUCCGACGAUC … UGGAAUUCUCGGGUGCCAA
Target sequence (chain): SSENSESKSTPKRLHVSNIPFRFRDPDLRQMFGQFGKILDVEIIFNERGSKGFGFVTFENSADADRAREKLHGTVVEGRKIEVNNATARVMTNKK
| Sequence | RBNS enrichment (R) |
| --- | --- |
| UAAAUAUUAUAUAAAUAUUGUAUAAAACAUUAAAAGUUAACUAUGUAAGAUAUUAUUUCUGAAACAGUUUUAGUUAUAUCCACUAUGAUUAUAAACUGUGUCUCGACCUG | 0.441 |
| UCAGUUACAUACAAUUUGUUUAAUGAAAUGUCAUGGCUCUGUUCAUAUUUUUGUCUUGUUCUUCCAAUUGGUAUAUACAACUUUCAGAGCCUCUUGUAUUUGGAAGGCUG | 0.543 |
| UUGAUUUGGAUCCUGAAACGGAACAAGUGAAUGGAUUGUUUAAGCAGGUCUUCCAUCUCCAAGAGGCCACUCUGUCCGGCCAGUGUCUGUUCAGGCCCACUGAAGAAGUG | 0.315 |
| AGCAGUGGCUCAGCUAAGUGCUCCCCCUAGCUCCCAUCUCAGGAGACCAAAUCUCACAGAAAAAUAGGCACUUUGGGCCAAAAGCUCUAAUGGAACAUUUUUAGUGGUGA | 0.173 |
| ACUAAAUGAAAGGAAGGGUAGUUUUAAUGUUGAAGCACCGUGCUGGGCACUGGAGCUACCCAGAGGAAUGCACAACGCUCCCCUCAAGGAGCUCACAGUCUAGCCUACUC | 0.269 |
| UAACCCCCAGCCCCUCAAAAAAAUAAGGCCUCCAGGUAUCAAGAUCUCAUAUUAGGAUUUUCUGUCCUUAAUUUUUUGAGCAAAAUCUGGAAAAUGUGAAAGCAUAUUUA | 0.4 |
| GACUGUGUGAUUGAGCCCAAGAAGCCAGAGACUAUGCAUUUGGCCGCUGCCAAGGGGGGGAUUGCUCACUUCACGUGCAGUUUGUCCAGUUACUCAGCCCUUUUUAUUUC | 0.518 |
| CGGUCUGCCUCCAGGGAUCCUGGGACCCUGAUGGCGAUCGUCCUGUCAUGCUGGGCCCUUCAUUUGAUCUGGGACAUAGCAUCACAGCAGUCAGGGCACCUGGAUUGUUC | 0.374 |

Series 3
Target: CCNB1, cyclin fold, Cln2 fusion (human)
Technique: yeast growth competition, sequencing
Sample: yeast
Setting: strong parent motif
Baseline: not given
Reading: higher = stronger binding
Starting sequence: E2F1 docking peptide (human); PPVKRRLDLETDH; partner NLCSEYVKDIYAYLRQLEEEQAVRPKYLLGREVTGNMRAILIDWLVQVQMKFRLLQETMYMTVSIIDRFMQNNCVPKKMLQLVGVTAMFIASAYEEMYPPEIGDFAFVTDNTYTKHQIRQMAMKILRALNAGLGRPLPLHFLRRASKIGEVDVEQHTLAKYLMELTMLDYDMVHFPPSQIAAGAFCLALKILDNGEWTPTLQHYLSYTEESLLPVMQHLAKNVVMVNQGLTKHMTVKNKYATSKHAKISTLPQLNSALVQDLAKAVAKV
| Substitution | normalised enrichment score |
| --- | --- |
| V3A | 1.15 |
| D12H | 0.318 |
| H13E | 2.39 |
| R6A | 0.295 |
| L7K | 0.3 |
| K4F | 1.22 |
| L7N | -0.306 |
| T11H | 0.63 |
| T11S | 1.82 |
| R5E | 0.263 |
| L7F | 0.22 |
| P2H | 1.24 |
| D12M | 0.99 |
| T11Y | 2.55 |
| H13M | 1.84 |
| D8H | -0.203 |
| E10A | 1.54 |
| H13D | 2.76 |
| T11D | 1.99 |
| R5M | 0.326 |
| R6Y | 0.595 |
| R6V | 0.294 |
| D8M | 1.28 |
| H13S | 1.35 |
| T11E | 1.86 |

Series 4
Target: ABI1, truncated, D143A, DHFR fusion (Arabidopsis thaliana)
Technique: DHFR PCA, deep sequencing
Sample: yeast
Setting: methotrexate growth selection, single substitutions
Added: (+)-ABA 17 µM
Baseline: wild-type fitted maximum
Reading: higher = stronger binding
Starting sequence: PYL1, truncated, DHFR fusion (Arabidopsis thaliana); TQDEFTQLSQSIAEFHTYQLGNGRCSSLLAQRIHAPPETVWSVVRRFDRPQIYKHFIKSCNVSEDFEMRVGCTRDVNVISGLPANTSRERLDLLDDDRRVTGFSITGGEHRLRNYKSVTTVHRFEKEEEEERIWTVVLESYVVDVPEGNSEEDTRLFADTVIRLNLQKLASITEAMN; partner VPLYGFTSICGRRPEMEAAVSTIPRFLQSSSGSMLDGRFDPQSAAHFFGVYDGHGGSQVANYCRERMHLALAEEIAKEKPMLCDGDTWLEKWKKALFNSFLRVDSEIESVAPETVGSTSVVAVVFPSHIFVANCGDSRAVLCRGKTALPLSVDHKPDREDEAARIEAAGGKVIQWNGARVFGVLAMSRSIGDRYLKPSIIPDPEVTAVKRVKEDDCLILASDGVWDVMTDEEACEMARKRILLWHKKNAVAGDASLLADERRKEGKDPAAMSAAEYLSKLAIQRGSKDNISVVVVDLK
| Substitution | relative binding score [%] |
| --- | --- |
| R98F | 33.1 |
| T173E | -10.1 |
| A158G | 26.2 |
| I57Y | 15.3 |
| L29V | 83.7 |
| L164F | 85.2 |
| D153A | 5 |
| R88Y | 83 |
| Q51D | 75.3 |
| R163M | 53.7 |

For quick reference, copied from above (series 1):
| Sequence | lacZ reporter activity |
| --- | --- |
| B8 (UBOX5 RING domain) | 0 |
| B2 (ZMIZ2 RING domain) | 0 |
| B1 (RBCK1 RING domain) | 0 |
| B5 (DZIP3 RING domain) | 0 |
| B4 (MAP3K1 RING domain) | 0 |
| B7 (TRIM62 RING domain) | 0 |
| B3 (SH3RF1 RING domain) | 0 |
| B9 (RNF133 RING domain) | 0 |
